Measurements collected from several papers.
Compare with care: the assays were run in different laboratories. Numbers after ± are the reported error.
CASP7: Caspase-7 (CASP7, Homo sapiens, UniProt P55210)

| SMILES | target | test | test system | setting | how to read | measurement | value |
| --- | --- | --- | --- | --- | --- | --- | --- |
| CC(=O)N[C@@H](CC(C)C)C(=O)N[C@H](C(=O)N[C@@H](Cc1ccc(O)cc1)C(=O)N[C@@H](CC(=O)O)C(=O)COC(=O)c1c(C)cccc1C)C(C)(C)C | CASP7 | enzyme activity, inhibitor |  |  |  | kinact/KI | 600 M⁻¹ s⁻¹ |
| COC(=O)Cc1cc2c(cc1C(=O)c1ccccc1Br)OCO2 | Gria2 (Rattus norvegicus, UniProt P19491) | glutamate-evoked current, whole-cell patch clamp | HEK-293T | concentration not given, pH 7.4, holding potential -60 mV, added: 10 mM glutamate |  | current amplitude | 591 ± 42 pA |
| O=C(Nc1cccc(CO)c1)c1cc(-c2ccccc2)n(-c2ccccc2)n1 | Genome polyprotein, NS2B-NS3 protease (dengue virus type 2, UniProt P29990) | enzyme activity, fluorogenic AMC substrate |  | 50 µM |  | inhibition | 47% |
| CCOC(=O)C(CC)(CCCSCCOCCOCCOCCN)NC(=O)c1ccc(C2CC2)c(Cc2ccc(F)cc2)n1 (centres unmarked) | CNR2 (Homo sapiens, UniProt P34972) | radioligand binding |  |  | baseline: CB1 over CB2 (human) | Ki ratio | 41 |
| CC1CCc2nc(-c3c[nH]nc3-c3ccccc3)ccc2N1 (centres unmarked) | human kinase panel | binding, KINOMEscan |  | 10000 nM, %Ctrl below 10 |  | number of kinases hit | 0 |
| N#CN1CC[C@H](C(=O)Nc2nc3c(s2)CN(C(=O)Cn2cc(CNC(=O)CCCC[C@@H]4SC[C@@H]5NC(=O)N[C@@H]54)nn2)CC3)C1 | USP7 (Homo sapiens, UniProt Q93009) | probe binding, affinity probe, neutravidin pull-down LC-MS/MS | HEK293T, cell lysate | 5 µM, 1 h, mean of three replicates, unit not given | higher = more pulled down | iBAQ abundance | 1.06e+07 |
| CC(=O)N[C@@H](CO)C(=O)N[C@H](C(=O)N1CCC[C@H]1C(=O)N[C@@H](CC(=O)O)C(=O)COC(=O)c1c(C)cccc1C)C(C)(C)C | CASP7 | enzyme activity, inhibitor |  |  |  | kinact/KI | 162000 M⁻¹ s⁻¹ |
| CCCCCC=CC=C1C(=O)C=CC1CC=CCCCC(=O)O (centres unmarked) | MOB4 (Homo sapiens, UniProt Q9Y3A3) | competitive isoTOP-ABPP | Ramos soluble proteome | 100 µM, 60 min, added: iodoacetamide probe | baseline: DMSO over compound-treated, higher = stronger cysteine blockade | isoTOP-ABPP competition ratio | 6.5 |
| CCc1cc(O)cc2c(/C=N/NC(=N)NCCc3ccc(Cl)cc3)c[nH]c12 | RXFP3 (Homo sapiens, UniProt Q9NSD7, V375T) |  | HEK-293T |  | baseline: wild type | Emax | 63.7 ± 8.33% |
| O=C(N[C@@H](Cn1cc(-c2ccc(F)cc2F)nn1)C(=O)O)OCC1c2ccccc2-c2ccccc21 | MDM2 (Homo sapiens, UniProt Q00987) | thermal stability, DSF |  | 30 µM |  | ΔTm | 3.38 °C |
| O=C1c2sc(-c3ccc(N4CCC(F)C4)nc3F)nc2CCN1c1cccnc1 (centres unmarked) | HRH4 (Homo sapiens, UniProt Q9H3N8) | ligand displacement, radioligand |  | 1 µM |  | inhibition | -3% |
| C[N+]1(C)CCSC1 | Chrnd/Chrna1/Chrne (Mus musculus, UniProt P02716+P04756+P20782, G173S/S470W) | ligand binding, agonist, single-channel kinetics |  | chain S | baseline: wild type over mutant | affinity ratio | 1.7 |
| Clc1ccc(NN=C(c2ccccc2)c2ccccn2)nc1 | KDM4A (Homo sapiens, UniProt O75164) | demethylase activity, inhibitor, 1H NMR, measured: H3K9me3 peptide |  |  |  | remaining signal at infinite time | 78% |
| C=CC(=O)N1C[C@H](C)N(c2nc(OC[C@@]34CCCN3C[C@H](F)C4)nc3c(F)c(-c4ccc(F)c5sc(N)c(C#N)c45)c(C(F)(F)F)cc23)C[C@H]1C | GTPase KRas, GppNHp-bound (KRAS, Homo sapiens, UniProt P01116, G13D) | binding |  |  |  | dissociation rate constant | 0.184 ± 0.0059 s⁻¹ |

For quick reference, copied from above:
| SMILES | target | test | test system | setting | how to read | measurement | value |
| --- | --- | --- | --- | --- | --- | --- | --- |
| O=C1c2sc(-c3ccc(N4CCC(F)C4)nc3F)nc2CCN1c1cccnc1 (centres unmarked) | HRH4 (Homo sapiens, UniProt Q9H3N8) | ligand displacement, radioligand |  | 1 µM |  | inhibition | -3% |
